Assay results from different studies.
Numbers after ± are the reported error. No end group written: not given here.
H2-Ab1/H2-Aa: H2-Ab1/H2-Aa (Mus musculus, UniProt P01921+P04228)
Sequence of UniProt P04228 (whole entry, looked up): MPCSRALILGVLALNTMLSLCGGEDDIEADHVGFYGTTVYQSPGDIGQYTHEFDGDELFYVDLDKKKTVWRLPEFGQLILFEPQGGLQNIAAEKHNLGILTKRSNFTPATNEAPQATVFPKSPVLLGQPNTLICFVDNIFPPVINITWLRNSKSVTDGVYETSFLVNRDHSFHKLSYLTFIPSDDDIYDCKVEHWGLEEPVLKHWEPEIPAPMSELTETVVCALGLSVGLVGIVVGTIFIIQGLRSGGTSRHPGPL
Sequence of UniProt P01921 (whole entry, looked up): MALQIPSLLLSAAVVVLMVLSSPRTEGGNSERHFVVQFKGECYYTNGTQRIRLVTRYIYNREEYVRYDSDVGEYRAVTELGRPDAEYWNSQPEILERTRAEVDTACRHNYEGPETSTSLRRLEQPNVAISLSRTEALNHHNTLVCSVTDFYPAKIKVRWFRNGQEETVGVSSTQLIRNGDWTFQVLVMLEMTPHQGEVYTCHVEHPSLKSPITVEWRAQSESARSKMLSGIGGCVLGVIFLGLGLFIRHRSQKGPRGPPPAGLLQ
Integrin beta-2: Integrin beta-2 (Homo sapiens, UniProt P05107)
B1: UGT1A9 (Homo sapiens, UniProt O60656); chain GKLLVVPMDGSHWFTMRSVVEKLILRGHEVVVVMPEVSWQLGRSLNCTVKTYSTSYTLEDLDREFKAFAHAQWKAQVRSIYSLLMGSYNDIFDLFFSNCRSLFKDKKLVEYLKESSFDAVFLDPFDNCGLIVAKYFSLPSVVFARGILCHYLEEGAQCPAPLSYVPRILLGFSDAMTFKERVRNHIMHLEEHLLCHRFFKNALEIASEILQTPVTEYDLYSHTSIWLLRTDFVLDYPKPVMPNMIFIGGINCHQGKPLPMEFEAYINASGEHGIVVFSLGSMVSEIPEKKAMAIADALGKIPQTVLWRYTGTRPSNLANNTILVKWLPQNDLLGHPMTRAFITHAGSHGVYESICNGVPMVMMPLFGDQMDNAKRMETKGAGVTLNVLEMTSEDLENALKAVINDKSYKENIMRLSSLHKDRPVEPLDLAVFWVEFVMRHKGAPHLRPAAHDLTWYQYHSLDVIGFLLAVVLTVAFITFKCCAYGYRKCLGKKGRVKKAHKSKTH
B2: chain DFVLDNEGNPLENGGTYYILSDITAFGGIRAAPTGNERCPLTVVQSRNELDKGIGTIISSPYRIRFIAEGHPLSLKFDSFAVIMLCVGIPTEWSVVEDLPEGPAVKIGENKDAMDGWFRLERVSDDEFNNYKLVFCPQQAEDDKCGDIGISIDHDDGTRRLVVSKNKPLVVQFQKLDKESL
Sequence of UniProt P0C7A3 (whole entry, looked up): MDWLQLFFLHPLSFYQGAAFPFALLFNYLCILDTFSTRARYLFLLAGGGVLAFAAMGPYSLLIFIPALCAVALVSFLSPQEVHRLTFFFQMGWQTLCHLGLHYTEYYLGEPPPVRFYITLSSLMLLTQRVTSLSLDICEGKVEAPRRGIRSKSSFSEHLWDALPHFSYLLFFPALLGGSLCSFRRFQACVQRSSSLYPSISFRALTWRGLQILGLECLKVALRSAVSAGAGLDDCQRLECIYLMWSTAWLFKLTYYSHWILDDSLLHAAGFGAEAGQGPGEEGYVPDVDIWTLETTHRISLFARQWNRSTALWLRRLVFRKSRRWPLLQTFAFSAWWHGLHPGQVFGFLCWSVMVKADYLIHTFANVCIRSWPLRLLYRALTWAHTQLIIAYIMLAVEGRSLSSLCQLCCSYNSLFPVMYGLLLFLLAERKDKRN
Sequence of UniProt Q9NYY3 (whole entry, looked up): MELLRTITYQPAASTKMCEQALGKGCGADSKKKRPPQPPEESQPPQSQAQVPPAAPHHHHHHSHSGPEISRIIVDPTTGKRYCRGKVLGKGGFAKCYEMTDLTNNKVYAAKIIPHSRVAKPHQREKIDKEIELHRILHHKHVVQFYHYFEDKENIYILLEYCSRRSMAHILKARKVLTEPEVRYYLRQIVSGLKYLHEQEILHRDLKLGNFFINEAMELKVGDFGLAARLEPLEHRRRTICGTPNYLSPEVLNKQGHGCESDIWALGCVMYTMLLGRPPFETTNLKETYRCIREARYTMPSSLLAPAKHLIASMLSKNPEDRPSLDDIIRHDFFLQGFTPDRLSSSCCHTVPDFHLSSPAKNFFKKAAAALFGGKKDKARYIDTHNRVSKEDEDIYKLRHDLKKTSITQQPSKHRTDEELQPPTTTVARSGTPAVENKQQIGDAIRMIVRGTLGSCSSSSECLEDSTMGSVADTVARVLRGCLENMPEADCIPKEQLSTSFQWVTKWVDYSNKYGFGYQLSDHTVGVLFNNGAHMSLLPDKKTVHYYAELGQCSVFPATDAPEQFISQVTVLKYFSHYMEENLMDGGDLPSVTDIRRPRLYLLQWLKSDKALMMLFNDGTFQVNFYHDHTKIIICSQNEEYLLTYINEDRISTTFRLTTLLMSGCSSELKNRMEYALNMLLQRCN

| Substance | target or system | assay | test system | setting | measurement | value |
| --- | --- | --- | --- | --- | --- | --- |
| B1 (UGT1A9) | O=c1c(O)c(-c2ccccc2)oc2cccc(O)c12 | steady-state kinetics |  | pH 7.4, 37 °C | Vmax/Km | 7400 µL/min/mg |
| GKAPRKQ (acetyl-Lys18) | Protein AF-9, YEATS domain (Homo sapiens, UniProt P42568) | binding, isothermal titration calorimetry |  | together with: acetylated histone peptides | Kd | 11 µM |
| HNGNGVTAACSHE (HA(126-138) T128G) | H2-Ab1/H2-Aa | class II-peptide complex dissociation, SEC-HPLC fluorescence | peptide, soluble I-A FITC-peptide complex | pH 5.3, 37 °C, together with: unlabeled Eα 5 µM | half-life | 1 h |
| angiostatin | Integrin beta-2 | binding, solid-phase binding |  | 22 °C | Kd | > 100 µM |
| HNQNGVTAACSHE (HA(126-138) T128Q) | H2-Ab1/H2-Aa | class II-peptide complex dissociation, SEC-HPLC fluorescence | peptide, soluble I-A FITC-peptide complex | pH 5.3, 37 °C, together with: unlabeled Eα 5 µM | half-life | 63 h |
| GSSFLSPEHQRVQQRKESKKPPAKLQPK-{Gly(Biotin)} (not fully specified; biotin-labelled) | Membrane-bound ghrelin O-acyltransferase MBOAT4 (Mus musculus, UniProt P0C7A3) | substrate | peptide | pH 7 | Km | 3.5 ± 0.6 µM |
| plasminogen | Integrin beta-2 | binding, solid-phase binding |  | 22 °C | Kd | 0.5 µM |
| HNVNGVTAACTHE (HA(126-138) T128V/S136T) | H2-Ab1/H2-Aa | class II-peptide complex dissociation, SEC-HPLC fluorescence | peptide, soluble I-A FITC-peptide complex | pH 5.3, 37 °C, together with: unlabeled Eα 5 µM | half-life | 9 h |
| GLHST (FITC-labelled, PEGylated) | Serine/threonine-protein kinase PLK2, polo-box domain (PLK2, Homo sapiens, UniProt Q9NYY3) | binding, fluorescence polarization |  | polo-box domain, together with: FITC-labelled peptide | Kd | > 2.56 µM |
| B2 | Coagulation factor XI (F11, Homo sapiens, UniProt P03951) | enzyme activity, inhibitor |  |  | Ki | 0.62 µM |
